Experimental data of several laboratories.
Numbered parts are unrelated; each lists some results of a single study.

Set 1
Target: Ras GTPase-activating protein-binding protein 1, full length (G3BP1, Homo sapiens, UniProt Q13283)
UniProt Q13283, sequence (whole entry, looked up): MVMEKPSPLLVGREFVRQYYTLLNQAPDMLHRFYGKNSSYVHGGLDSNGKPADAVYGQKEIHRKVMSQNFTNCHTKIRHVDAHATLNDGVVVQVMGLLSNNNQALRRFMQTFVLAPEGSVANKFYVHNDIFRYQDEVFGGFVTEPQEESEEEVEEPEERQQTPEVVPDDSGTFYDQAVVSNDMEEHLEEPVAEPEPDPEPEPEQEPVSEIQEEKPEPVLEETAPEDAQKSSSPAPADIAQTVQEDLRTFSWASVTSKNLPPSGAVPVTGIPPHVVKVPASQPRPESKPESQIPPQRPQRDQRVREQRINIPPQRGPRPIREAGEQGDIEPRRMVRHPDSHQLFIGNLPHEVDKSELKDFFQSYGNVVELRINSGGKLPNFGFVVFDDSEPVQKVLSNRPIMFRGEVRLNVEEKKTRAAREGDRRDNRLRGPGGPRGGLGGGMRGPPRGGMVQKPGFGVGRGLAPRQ
Technique: RNA Bind-n-Seq
Form: RNA
Matrix: in vitro
Tested at: 200 nM
Setting: whole 134-nt RNA, ends assumed
Together with: 150 mM LiCl
Baseline: input library
Direction: higher = stronger binding
Library: 7-deaza-guanosine replaces G
Constant ends, left off below: GGGAGUUCUACAGUCCGACGAUC … UGGAAUUCUCGGGUGUCAAGG
Oligonucleotide	log2 enrichment
UCAAGUCCUGUGCUACACAUCGUAUGUACCGAAUCGGGCCGGGGCCGGGGCCGGAAAGUAUUAUGUUACGCCGUUCGGAUCUGCACUUCC	0.102
CUCAAGUCCUGUGCUACACAUCGUAUGUACCGAAUCGGAAAAAAAGGUGGUGGAAAGUAUUAUGUUACGCCGUUCGGAUCUGCACUUCCA	-0.366
UCAAGUCCUGUGCUACACAUCGUAUGUACCGAAUCGGGAAGGAAGGGGAAGGGGAAAGUAUUAUGUUACGCCGUUCGGAUCUGCACUUCC	-0.141
CCUCAAGUCCUGUGCUACACAUCGUAUGUACCGAAUCGGAGGUUUGGUUUGGAAAGUAUUAUGUUACGCCGUUCGGAUCUGCACUUCCAG	-0.708
CCUCAAGUCCUGUGCUACACAUCGUAUGUACCGAAUCGGGGUGGUGGGUGGGGAAAGUAUUAUGUUACGCCGUUCGGAUCUGCACUUCCA	-0.311
CAAGUCCUGUGCUACACAUCGUAUGUACCGAAUCGGAAAGGUUUUUUUGGUUUGGAAAGUAUUAUGUUACGCCGUUCGGAUCUGCACUUC	-2.59
UGGGAGGUGGAUUUUGUUUAUUUUUUUAGCUCAUUUCCAGGGGUCGGAAUUUUUUUUUAAUAUGUGUCAUGAAUAAAGUUGUUUUUGAAA	-0.717
CACAGACAACACGCACCCACACAGACACAGAGGGAAGGGGUUGGGAUGGGGACCGGGUGCACAGCAGGGCGGGGUAGGACCCCAGCCCCU	0.279

Set 2
Target: Histone acetyltransferase KAT6A, both winged helices, GST fusion (KAT6A, Homo sapiens, UniProt Q92794, residues 1-181)
Technique: protein binding microarray
Form: double-stranded DNA, one strand shown
Matrix: in vitro
Tested at: not given
Setting: 8-mer, flanks averaged, mean of 2 arrays, mostly near background
Baseline: not given
Direction: higher = stronger binding
Construct (chain): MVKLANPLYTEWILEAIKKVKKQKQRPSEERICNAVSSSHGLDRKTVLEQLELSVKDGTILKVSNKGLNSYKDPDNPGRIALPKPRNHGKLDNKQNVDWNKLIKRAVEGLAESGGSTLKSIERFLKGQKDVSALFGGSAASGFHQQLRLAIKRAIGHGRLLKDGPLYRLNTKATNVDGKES
Oligonucleotide	E-score
ACGGGTAA	0.217
CGCCAAGC	0.148
ACCGAGTG	0.0196
CAAATAAC	-0.0159
CTTTCGAC	-0.0886
CACTCACC	-0.153
CCATTGTA	-0.104

Set 3
Target: Phosphate system positive regulatory protein PHO4, full length, GST-tagged (PHO4, Saccharomyces cerevisiae, UniProt P07270, residues 1-312)
Technique: competition protein-binding microarray
Form: double-stranded DNA, one strand shown
Matrix: in vitro
Tested at: 2 µM
Setting: whole 60-bp probe, lowest competitor level
Together with: Cbf1 competitor, 0.05 µM
Direction: higher = stronger binding
Constant ends, left off below: … GTCTTGATTCGCTTGACGCTGCTG
Construct (chain): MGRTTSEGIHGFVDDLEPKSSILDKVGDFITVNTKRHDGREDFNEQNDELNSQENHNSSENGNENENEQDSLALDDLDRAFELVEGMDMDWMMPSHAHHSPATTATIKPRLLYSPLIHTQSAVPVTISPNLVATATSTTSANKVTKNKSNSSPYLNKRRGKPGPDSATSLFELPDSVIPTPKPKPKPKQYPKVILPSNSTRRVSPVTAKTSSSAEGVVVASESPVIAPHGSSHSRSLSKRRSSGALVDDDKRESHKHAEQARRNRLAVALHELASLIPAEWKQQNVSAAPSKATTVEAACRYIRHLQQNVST
Oligonucleotide	fluorescence intensity [a.u.]
TGACTGAAGACGAATTACGTGCTTTTTTCCAACCTT	4810
TAGGAGACTAGTGGTTATGTGACGGTGCGAACCTAA	3390
GTCTTGTCTCATTGGTATGTGGGTGTCCCCACTTCA	5590
CATTTCTGTCCATGCCTCGTGCGGAAATGATTGAAT	14600
TGCGCAACAACTTGTCACAAAACTTTATGTCTAGAA	2990
AGCCACAGTTCGAGTCACGTGCGGACCATGCTGACT	17200

Mixed results
Molecule	target	assay	system	setting	scale	endpoint	value
PhoQ, residues 284 288 289 292 302 303 TTCLQL	PhoP, residues 12 14 15 18 19 YHFSH (Escherichia coli, UniProt P23836)	Sort-seq, item: YFP reporter	E. coli	PhoQ-PhoP variant library, together with: 10 µM Mg2+	baseline: high Mg2+ state, higher = stronger signaling	fold induction	4.32

Some of these lines once more (set 1):
Oligonucleotide	log2 enrichment
CUCAAGUCCUGUGCUACACAUCGUAUGUACCGAAUCGGAAAAAAAGGUGGUGGAAAGUAUUAUGUUACGCCGUUCGGAUCUGCACUUCCA	-0.366
UCAAGUCCUGUGCUACACAUCGUAUGUACCGAAUCGGGAAGGAAGGGGAAGGGGAAAGUAUUAUGUUACGCCGUUCGGAUCUGCACUUCC	-0.141
CCUCAAGUCCUGUGCUACACAUCGUAUGUACCGAAUCGGAGGUUUGGUUUGGAAAGUAUUAUGUUACGCCGUUCGGAUCUGCACUUCCAG	-0.708
